Results pooled from the literature.
Parts stem from different laboratories: compare values within a part only. Changes are numbered by the printed parent chain.

Set 1
Target: Interferon regulatory factor 7, full length, phosphomimetic (IRF7, Homo sapiens, UniProt Q92985, residues 1-503, S101K/S471D/S472D/S475D/S476D/S477D/S483D/S484D/S487D)
Method: protein-binding microarray
Form: double-stranded DNA, one strand shown
Medium: in vitro
Tested at: 250 nM
Notes: 60-bp whole probe
With: salmon DNA 0.4 mg/ml
Relative to: random background probes
Direction: higher = stronger binding
Constant ends, left off below: GCCTAGCAC … GTCTTGATTCGCTTGACGCTGCTG
Residues (chain): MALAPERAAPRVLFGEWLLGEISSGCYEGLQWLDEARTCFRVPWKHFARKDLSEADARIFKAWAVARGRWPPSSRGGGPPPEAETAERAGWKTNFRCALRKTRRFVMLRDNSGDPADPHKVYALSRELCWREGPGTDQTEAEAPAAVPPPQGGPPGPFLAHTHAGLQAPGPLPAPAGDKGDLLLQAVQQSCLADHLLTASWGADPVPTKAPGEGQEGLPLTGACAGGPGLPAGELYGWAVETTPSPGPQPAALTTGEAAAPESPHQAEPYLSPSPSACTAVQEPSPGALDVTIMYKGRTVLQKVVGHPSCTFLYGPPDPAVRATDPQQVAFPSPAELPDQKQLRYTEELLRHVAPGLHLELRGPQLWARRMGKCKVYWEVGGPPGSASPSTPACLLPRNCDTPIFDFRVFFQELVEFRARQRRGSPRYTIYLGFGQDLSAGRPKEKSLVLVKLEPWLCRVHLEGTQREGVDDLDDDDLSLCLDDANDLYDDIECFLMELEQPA
Sequence	log fluorescence [z-score]
TACGGTTTCCTTATCCTGACGTGCTAG	3.25
GGCCGTCTGAGCTCCGTAGCGTGCTAG	-0.964
GTGCCCGCTGCTTCCGGTGCGTGCTAG	-0.0756
CTAGATTTCAGTTCCGATTAGTGCTAG	2
TGAAGACTCTCTTGTCTGGATGTGCTA	-0.529
TCATTTTTTTTTTACTTACTGTGCTAG	1.06
TTAGATCTCAGTATCGAGTAGTGCTAG	0.144
GACGGACTGCTACTGCTGATGTGCTAG	-0.756
GGCTGTTTGGTCCTGAACCTGTGCTAG	-1.03
GACGATATCAGTATCGAGAGGTGCTAG	-0.135
TCATCTACAGGGTTTCACACTGTGCTA	0.0167

Set 2
Target: CCNA2, cyclin fold, Cln2 fusion (human)
Method: yeast growth competition, sequencing
Medium: yeast
Notes: strong parent motif
Relative to: not given
Direction: higher = stronger binding
Parent: PKMYT1 docking peptide (human); SFEPRNLLSLFED; partner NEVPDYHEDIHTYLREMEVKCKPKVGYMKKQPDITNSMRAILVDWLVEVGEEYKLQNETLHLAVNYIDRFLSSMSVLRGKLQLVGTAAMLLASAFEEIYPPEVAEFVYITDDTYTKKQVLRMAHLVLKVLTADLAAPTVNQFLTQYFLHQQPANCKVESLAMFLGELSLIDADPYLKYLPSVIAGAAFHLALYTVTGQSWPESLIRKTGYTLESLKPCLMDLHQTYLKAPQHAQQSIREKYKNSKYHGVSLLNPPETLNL
Substitution	normalised enrichment score
SFEPRNLLSHFED [L10H]	1.47
SFEPRNLYSLFED [L8Y]	1.2
STEPRNLLSLFED [F2T]	1.15
SMEPRNLLSLFED [F2M]	1.61
SFEPRNLQSLFED [L8Q]	1.03
SFEPRNLLSLWED [F11W]	0.537
TFEPRNLLSLFED [S1T]	2.16

Set 3
Target: Centromere-binding protein 1, full length, N-terminal tag (CBF1, Saccharomyces cerevisiae, UniProt P17106, residues 1-351)
UniProt P17106, sequence (whole entry, looked up): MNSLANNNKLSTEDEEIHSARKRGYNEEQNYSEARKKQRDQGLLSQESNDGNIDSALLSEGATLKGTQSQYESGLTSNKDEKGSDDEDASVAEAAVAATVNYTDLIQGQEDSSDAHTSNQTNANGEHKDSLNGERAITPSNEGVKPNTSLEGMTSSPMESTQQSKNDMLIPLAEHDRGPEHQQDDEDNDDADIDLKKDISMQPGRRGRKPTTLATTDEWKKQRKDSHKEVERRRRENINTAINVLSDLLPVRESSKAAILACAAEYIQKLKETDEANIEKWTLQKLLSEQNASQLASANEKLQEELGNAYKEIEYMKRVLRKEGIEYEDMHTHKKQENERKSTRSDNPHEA
Method: protein-binding microarray
Form: double-stranded DNA, one strand shown
Medium: in vitro
Tested at: 0.8 µM
Notes: whole 60-bp probe, no competitor
Direction: higher = stronger binding
Constant ends, left off below: … GTCTTGATTCGCTTGACGCTGCTG
Sequence	fluorescence intensity [a.u.]
GAAGAACTAAGAAAGGCCGTGACTTAACTGGTCTAG	622
GAAACAATGTTCCCTCTGATGTACATTTACGAATAG	510
CTACCAAAATACATCCTCGTGGCATCCCAGGTTTTC	579
CTAGCGTTAGCAGGTGGTGCCAGTGGATTTTCATTC	525
CTAGTAGTAACTATCCTGATGTTGATCCTAGTTTTC	489
CTATCTATCAAACAACATGTGAAGATAACACAATTC	650
TGTACGAAGCTATGTCACGACCGTATAGTAGTTAGG	608
CCTAACTACTATATTCTGATGATATAGCTTCGTACA	496
CTAACTTGACTGCACCTCGTGTCGGAAGATTTTTTC	604
TGTACGAAGCTATAATGCATGACTATAGTAGTTAGG	563

Mixed results
Substance	target	test	test system	setting	scale	endpoint	result
PhoQ, residues 284 288 289 292 302 303 NLALSC	PhoP, residues 12 14 15 18 19 NYFRM (Escherichia coli, UniProt P23836)	Sort-seq, refers to: YFP reporter	E. coli	PhoQ-PhoP variant library, with: 10 µM Mg2+	relative to: high Mg2+ state, higher = stronger signaling	fold induction	1.37

Excerpt of the above (set 3):
Sequence	fluorescence intensity [a.u.]
CTAGCGTTAGCAGGTGGTGCCAGTGGATTTTCATTC	525
CTAGTAGTAACTATCCTGATGTTGATCCTAGTTTTC	489
